Published values pooled from the literature.
Each line is one published result; not all experiments were run side by side.
Cell line: MDA-MB-231

SMILES | assay | setting | how to read | endpoint | value
N=C(N)NCCC[C@H](NC(=O)[C@H](Cc1c[nH]c2ccccc12)NC(=O)[C@H](CCC(N)=O)NC(=O)[C@H](Cc1c[nH]c2ccccc12)NC(=O)[C@@H](N)CCCNC(=N)N)C(=O)N[C@@H](Cc1c[nH]c2ccccc12)C(=O)N[C@@H](CCC(N)=O)C(=O)N[C@@H](Cc1c[nH]c2ccccc12)C(N)=O |  |  | reference: erythrocyte IC50 over MDA-MB-231 IC50 | selectivity ratio | > 1
CN[C@@H](C)C(=O)N[C@H]1CN(C(=O)Cc2ccccc2)CC[C@H]2CC[C@@H](C(=O)NCc3ccc(Br)cc3)N2C1=O | cIAP1 degradation, western blot, refers to: cIAP1 | 24 h |  | onset concentration | > 30 nM
N=C(N)NCCC[C@H](NC(=O)[C@H](Cc1c[nH]c2ccccc12)NC(=O)[C@H](CCC(N)=O)NC(=O)[C@H](Cc1c[nH]c2ccccc12)NC(=O)[C@H](CCCNC(=N)N)NC(=O)[C@H](Cc1c[nH]c2ccccc12)NC(=O)[C@H](CCC(N)=O)NC(=O)[C@H](Cc1c[nH]c2ccccc12)NC(=O)[C@@H](N)CCCNC(=N)N)C(N)=O |  |  | reference: fibroblast IC50 over MDA-MB-231 IC50 | selectivity ratio | > 1.3
FC(F)(F)Oc1cccc(Cc2c[nH]c3ncc(C(F)(F)F)cc23)c1 | cell growth or viability | 10 µM, 72 h |  | inhibition | 25%
CC1(C)C(=CC=C2CCCC(C=CC3=[N+](CCCCCC(=O)O)c4ccccc4C3(C)C)=C2c2ccccc2)N(CCCCCC(=O)O)c2ccccc21 | confocal microscopy | 10 µM, added: BSA-FITC about 1 equiv |  | Pearson colocalization coefficient | 0.63
CCCCCCCCCCCCCCCOC(=O)/C=C/c1cc(O)c(O)c(OC)c1 | propidium iodide flow cytometry | concentration not given, 24 h |  | cells in S phase | 20%
CCC(=C(c1ccc(Cl)cc1)c1ccc(OCCCN(C)C)cc1)c1ccc(OC)cc1 |  |  |  | GI50 | 1.3 µM
O=C(Cc1ccccc1)Nc1nc2ccccc2n1Cc1ccccc1 | qPCR, refers to: HIF1A | 10 µM, 8 h, normoxia |  | mRNA level | decreased
OC(c1ccc(C(F)(F)F)cc1)c1c[nH]c2ncc(C(F)(F)F)cc12 (stereo not shown) | cell growth or viability | 10 µM, 72 h |  | inhibition | 18%
Cc1ccc(-c2c(/C=C(\C#N)C(=O)NC(C)C)n(CCCO)c3ncnc(N)c23)cc1 | RSK2 Ser386 autophosphorylation, inhibitor | 2 h |  | EC50 | < 10 nM
COc1cccc(Cc2c[nH]c3ncc(C(F)(F)F)cc23)c1 | cell growth or viability | 10 µM, 72 h |  | inhibition | 15%
CC1(C)C(=CC=C2C[N+](C)(C)CC(C=CC3=[N+](CCCCCC(=O)O)c4ccccc4C3(C)C)=C2Cl)N(CCCCCC(=O)O)c2ccccc21 |  | serum-free medium, added: BSP 250 µM |  | cellular uptake | increased
COC(=O)C1CCCN1C(=O)C(Cc1ccccc1)N(C)C(=O)CC(O)C(CC(C)C)NC(=O)C(CC(C)C)N(C)C(=O)C(CC(C)C)NC(=O)C(O)C(C)C (stereo not shown) | MTT | 40 and 13 µM, 48 h, added: TRAIL |  | sensitivity to TRAIL | increased
OC(c1cccc(Cl)c1)c1c[nH]c2ncc(C(F)(F)F)cc12 (stereo not shown) | cell growth or viability | 10 µM, 72 h |  | inhibition | 10%
CC1OC2OC3C4=C(OC3(C)C12O)C(=O)c1c(O)cccc1C4=O (stereo not shown) | cell growth or viability, MTT | 48 h |  | EC50 | 1.25 µg/mL
FC(F)(F)c1cnc2[nH]cc(Cc3ccc(Cl)c(C(F)(F)F)c3)c2c1 | cell growth or viability | 10 µM, 72 h |  | inhibition | 19%
CC(=O)O[C@H]1C(=O)[C@]2(C)[C@@H](OC(=O)[C@H](N)CSC3CC(=O)N(CCC(=O)Nc4ccc(-c5ccc(/N=N/c6ccc7c(S(=O)(=O)O)cc(S(=O)(=O)O)c(N)c7c6O)c(C)c5)cc4C)C3=O)C[C@H]3OC[C@@]3(OC(C)=O)[C@H]2[C@H](OC(=O)c2ccccc2)[C@]2(O)C[C@H](OC(=O)[C@H](O)[C@@H](NC(=O)c3ccccc3)c3ccccc3)C(C)=C1C2(C)C (stereo partly shown) | annexin V/PI flow cytometry | concentration not given, 24 h |  | early apoptotic cells | 44.7%
CC(C)C1=C(O)C(=O)C2=C(C1=O)[C@H](OC=O)[C@@H](O)[C@H]1C(C)(C)CCC[C@]21C | cell growth or viability, SRB | 48 h |  | GI50 | > 100 µM
C=C[C@H](OC(C)=O)c1ccc(OC(C)=O)cc1 | Western blot, refers to: phospho-FAK/FAK | concentration not given, 24 h |  | phospho-FAK reduction | 70 to 94%
C/C(=N\N(c1ccccc1)c1ccccc1)c1ccc(O)cc1 | Western blot | concentration not given, 48 h, added: estradiol 1 nM |  | CDK2 protein level | decreased

SMILES | assay | setting | how to read | endpoint | value
CC(=O)N[C@@H](Cc1ccc(O)cc1)CN(CC(=O)N[C@@H](CCCCN)CN(CC(=O)N[C@@H](Cc1ccccc1)CN(CC(=O)N[C@H]1CCCCNc2c(F)c(F)c(c(F)c2F)S(=O)(=O)c2c(F)c(F)c(c(F)c2F)NCCCC[C@@H](CN(CC(=O)N[C@@H](C)CN(CC(N)=O)S(C)(=O)=O)S(C)(=O)=O)NC(=O)CN(S(=O)(=O)CC(C)C)C[C@H](CC(C)C)NC(=O)CN(S(=O)(=O)CCN)C1)S(=O)(=O)CC(C)C)S(=O)(=O)CCN)S(C)(=O)=O | cell growth or viability, CCK-8 | 72 h |  | GI50 | 4.59 µM
N=C(N)NCCC[C@H](NC(=O)[C@H](Cc1c[nH]c2ccccc12)NC(=O)[C@H](CCC(N)=O)NC(=O)[C@@H](N)Cc1c[nH]c2ccccc12)C(=O)N[C@@H](Cc1c[nH]c2ccccc12)C(=O)N[C@@H](CCC(N)=O)C(=O)N[C@@H](Cc1c[nH]c2ccccc12)C(N)=O |  |  | reference: erythrocyte IC50 over MDA-MB-231 IC50 | selectivity ratio | > 1
Cc1ccc(C(C)C)cc1.O=C(N=P(c1ccccc1)(c1ccccc1)c1ccccc1)c1ccccn1.[Cl-].[Cl][Ru+] | cell growth or viability, resazurin |  |  | IC20 | 2.5 µM
CC(=O)c1cccc(NC2C(N)C(NC(=O)N(C)C)(C(C)OC(=O)C(C)(C)C)C(C)(O)C2(O)COC(=O)C(C)(C)C)c1 (stereo not shown) | cell growth or viability |  |  | EC50 | 2440 nM
C=CC(OC(C)=O)c1ccc(OC(C)=O)c(OC)c1 (stereo not shown) | Western blot | IC50, 24 h | reference: untreated | Bax protein level | 9.4 fold
[Ru+2].c1ccc(-c2ccc3c(n2)c2ncccc2c2nc4cc5ccccc5cc4nc32)nc1.c1ccc(-c2ccc3c(n2)c2ncccc2c2nc4cc5ccccc5cc4nc32)nc1 | cell viability, MTT | 1 h exposure, blue light 20 min, 56 J/cm^2, read 72 h |  | EC50 | > 25000 nM
CCN(CC)C1=[S+][Au-2]2([S]1)[c]1ccccc1-c1cccc[n+]12.F[P-](F)(F)(F)(F)F (stereo not shown) | ICP-MS | 10 µM, 18 h |  | mitochondrial gold accumulation | 11 nmol/20 million cells
CN[C@@H](C)C(=O)N[C@H]1CN(C(=O)Cc2ccccc2)CC[C@H]2CC[C@@H](C(=O)NCc3ccc(C(F)(F)F)cc3)N2C1=O | apoptosis, annexin V/PI flow cytometry | 24 h |  | minimum effective concentration | 300 to 1000 nM
CC(=O)N[C@@H](Cc1ccc(O)cc1)CN(CC(=O)N[C@@H](CCCCN)CN(CC(=O)N[C@@H](Cc1ccccc1)CN(CC(=O)N[C@H]1CCCCNc2c(F)c(F)c(c(F)c2F)S(=O)(=O)c2c(F)c(F)c(c(F)c2F)NCCCC[C@@H](CN(CC(=O)N[C@@H](C)CN(CC(N)=O)S(C)(=O)=O)S(C)(=O)=O)NC(=O)CN(S(=O)(=O)CC(C)C)C[C@H](Cc2ccccc2)NC(=O)CN(S(=O)(=O)CCN)C1)S(=O)(=O)c1ccc(Cl)cc1)S(=O)(=O)CCN)S(C)(=O)=O | cell growth or viability, CCK-8 | 72 h |  | GI50 | 14.5 µM
COc1cccc(C(O)c2c[nH]c3ncc(C(F)(F)F)cc23)c1 (stereo not shown) | cell growth or viability | 10 µM, 72 h |  | inhibition | 6%
C=CC(OC(C)=O)c1cc(OC)c(OC(C)=O)c(OC)c1 (stereo not shown) | Western blot, refers to: phospho-FAK/FAK | concentration not given, 24 h |  | phospho-FAK reduction | 70 to 94%
C=C1C(=O)OC2CC3=C[C@@H](C/C(C)=C/C(OC(=O)Cc4cccc5ccccc45)[C@H]12)OC3=O (stereo partly shown) | Boyden chamber | 1.25 µM, 24 h | reference: vehicle | migration inhibition | 10%
Clc1ccc2ccc3[n+](c2c1)[Ir-3]12([c]4ccccc4-3)([c]3ccccc3-c3ccc4ccc(Cl)cc4[n+]31)[n+]1ccccc1-c1cccc[n+]12.F[P-](F)(F)(F)(F)F | qPCR, refers to: Mcl-1 | 3 µM |  | mRNA level | inhibited
C=CC(OC(C)=O)c1ccc(OC)cc1 (stereo not shown) | cell growth or viability, MTT |  |  | IC20 | 45 µM
CC(=O)c1cccc(NC2C(N)C(NC(=O)N(C)C)(C(C)O)C(O)C2(O)COC(=O)c2c(C)cccc2O)c1 (stereo not shown) | cytotoxicity | free compound |  | EC50 | 50 nM
Cc1nc2ccc(Cc3c[nH]c4ncc(C(F)(F)F)cc34)cc2o1 | cell growth or viability | 10 µM, 72 h |  | inhibition | 9%
CCCCCCCCCCCCCC(=O)N1CCC[C@H]1C(=O)N[C@@H](CO)C(=O)N[C@@H](CCC(N)=O)C(=O)N[C@@H](CO)C(=O)N[C@@H](CO)C(=O)N[C@@H](CO)C(=O)N[C@@H](CCC(=O)O)C(=O)N[C@@H](C)C(=O)O | annexin V/PI flow cytometry | 200 µM, 48 h |  | apoptotic cells | 35%
CN[C@@H](C)C(=O)N[C@H]1CCCCNC(=O)[C@H](Cc2ccccc2)NC(=O)[C@@H]2CCCN2C(=O)[C@@H](NC(=O)[C@H](C)NC)CCCCNC(=O)[C@H](Cc2ccccc2)NC(=O)[C@@H]2CCCN2C1=O | fluorometric | concentration not given, added: Z-DEVD-FMK |  | caspase-3/7 activation | inhibited
CCC(C(=O)O)C1CCC(C)C(C(C)C(O)C(C)C(=O)C(CC)C2OC3(C=CC(=O)C4(CCC(C)(C5CCC(O)(CC)C(C)O5)O4)O3)C(C)CC2C)O1 (stereo not shown) | MTT | added: benzhydroxamic acid 71.0 µM |  | combination index | 1.5
COc1ccc(C=CC(=O)c2cccc(O)c2)cc1 | Western blot | concentration not given, 48 h, added: estradiol 1 nM |  | CDK2 protein level | decreased

Excerpt of the above:
SMILES | assay | setting | how to read | endpoint | value
O=C(Cc1ccccc1)Nc1nc2ccccc2n1Cc1ccccc1 | qPCR, refers to: HIF1A | 10 µM, 8 h, normoxia |  | mRNA level | decreased
Cc1ccc(-c2c(/C=C(\C#N)C(=O)NC(C)C)n(CCCO)c3ncnc(N)c23)cc1 | RSK2 Ser386 autophosphorylation, inhibitor | 2 h |  | EC50 | < 10 nM
CC(C)C1=C(O)C(=O)C2=C(C1=O)[C@H](OC=O)[C@@H](O)[C@H]1C(C)(C)CCC[C@]21C | cell growth or viability, SRB | 48 h |  | GI50 | > 100 µM
CC(=O)N[C@@H](Cc1ccc(O)cc1)CN(CC(=O)N[C@@H](CCCCN)CN(CC(=O)N[C@@H](Cc1ccccc1)CN(CC(=O)N[C@H]1CCCCNc2c(F)c(F)c(c(F)c2F)S(=O)(=O)c2c(F)c(F)c(c(F)c2F)NCCCC[C@@H](CN(CC(=O)N[C@@H](C)CN(CC(N)=O)S(C)(=O)=O)S(C)(=O)=O)NC(=O)CN(S(=O)(=O)CC(C)C)C[C@H](Cc2ccccc2)NC(=O)CN(S(=O)(=O)CCN)C1)S(=O)(=O)c1ccc(Cl)cc1)S(=O)(=O)CCN)S(C)(=O)=O | cell growth or viability, CCK-8 | 72 h |  | GI50 | 14.5 µM
